{"data": "Measured values pooled from the literature", "note": "A part holds a random share of what one study measured.", "UniProt P45985, sequence (whole entry, looked up)": "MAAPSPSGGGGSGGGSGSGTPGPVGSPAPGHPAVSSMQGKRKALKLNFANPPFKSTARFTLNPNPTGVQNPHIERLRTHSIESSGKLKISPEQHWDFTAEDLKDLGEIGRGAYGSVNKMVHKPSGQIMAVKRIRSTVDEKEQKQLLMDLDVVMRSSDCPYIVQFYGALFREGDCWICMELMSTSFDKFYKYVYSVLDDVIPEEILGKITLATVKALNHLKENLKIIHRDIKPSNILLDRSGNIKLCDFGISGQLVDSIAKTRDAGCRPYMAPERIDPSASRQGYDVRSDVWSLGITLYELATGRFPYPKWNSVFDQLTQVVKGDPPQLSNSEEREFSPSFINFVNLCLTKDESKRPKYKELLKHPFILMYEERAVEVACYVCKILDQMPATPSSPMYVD", "UniProt O75716, sequence (whole entry, looked up)": "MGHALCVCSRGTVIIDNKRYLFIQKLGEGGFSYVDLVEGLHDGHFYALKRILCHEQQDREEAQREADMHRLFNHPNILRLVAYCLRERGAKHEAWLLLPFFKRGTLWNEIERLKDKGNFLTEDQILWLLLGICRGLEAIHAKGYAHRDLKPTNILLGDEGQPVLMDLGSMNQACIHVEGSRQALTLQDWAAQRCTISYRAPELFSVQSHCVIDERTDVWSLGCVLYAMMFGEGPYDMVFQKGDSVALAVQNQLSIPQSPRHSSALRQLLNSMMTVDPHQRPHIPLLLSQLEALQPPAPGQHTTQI", "UniProt Q15349, sequence (whole entry, looked up)": "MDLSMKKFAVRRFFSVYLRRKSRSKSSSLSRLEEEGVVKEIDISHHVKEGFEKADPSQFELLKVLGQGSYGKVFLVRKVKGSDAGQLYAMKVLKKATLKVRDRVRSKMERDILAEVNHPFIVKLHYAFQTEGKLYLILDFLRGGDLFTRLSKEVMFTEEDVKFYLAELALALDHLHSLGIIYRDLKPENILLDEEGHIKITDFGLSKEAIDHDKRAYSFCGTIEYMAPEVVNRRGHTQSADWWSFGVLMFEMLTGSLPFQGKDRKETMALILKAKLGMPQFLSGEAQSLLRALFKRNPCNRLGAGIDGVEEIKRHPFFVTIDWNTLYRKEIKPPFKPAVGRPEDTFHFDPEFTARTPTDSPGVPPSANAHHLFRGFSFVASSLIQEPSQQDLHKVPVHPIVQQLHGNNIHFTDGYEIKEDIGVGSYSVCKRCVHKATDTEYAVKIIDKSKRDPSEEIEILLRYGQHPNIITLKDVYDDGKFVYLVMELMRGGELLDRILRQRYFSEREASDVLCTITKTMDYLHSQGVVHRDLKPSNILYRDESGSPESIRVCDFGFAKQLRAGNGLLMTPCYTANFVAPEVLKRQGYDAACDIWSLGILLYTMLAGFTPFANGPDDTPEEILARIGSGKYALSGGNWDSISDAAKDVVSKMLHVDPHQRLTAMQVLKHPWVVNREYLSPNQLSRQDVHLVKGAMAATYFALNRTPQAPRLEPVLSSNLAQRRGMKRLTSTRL"}
{"data": "Sample 1", "target": "Hepatocyte nuclear factor 3-alpha (Foxa1, Mus musculus, UniProt P35582, residues 1-468, full length assumed)", "technique": "EMSA with sequencing", "form": "double-stranded DNA, one strand shown", "sample": "in vitro", "concentration": "10 and 20 nM", "notes": "whole designed probe, mean of two concentrations, ends assumed", "relative to": "negative control set to 0", "direction": "higher = stronger binding", "constant ends, left off below": "GTGAGCGGTGCCCATTGATGGGGAAC … TTTCACTGGGATCGTGGGGAC", "Target sequence (chain)": "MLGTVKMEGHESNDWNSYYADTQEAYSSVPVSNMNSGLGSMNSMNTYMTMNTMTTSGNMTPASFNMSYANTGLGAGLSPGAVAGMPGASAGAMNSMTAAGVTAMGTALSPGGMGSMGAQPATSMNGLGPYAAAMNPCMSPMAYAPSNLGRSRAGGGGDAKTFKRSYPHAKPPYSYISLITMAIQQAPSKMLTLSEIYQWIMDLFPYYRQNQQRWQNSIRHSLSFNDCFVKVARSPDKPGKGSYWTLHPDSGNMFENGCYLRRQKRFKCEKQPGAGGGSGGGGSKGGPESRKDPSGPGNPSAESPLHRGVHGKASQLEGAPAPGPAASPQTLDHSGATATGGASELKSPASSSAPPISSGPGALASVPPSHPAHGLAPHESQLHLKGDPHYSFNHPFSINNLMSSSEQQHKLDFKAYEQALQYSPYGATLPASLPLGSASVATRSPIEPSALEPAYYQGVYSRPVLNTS"}
{"Sequence": "AATCCAGCTACCTATCTTCAGTTCCTTGGCCTTCAGCTGGCAGTGAAACAGACACATCAGCTTTAAGACTGGCAGCCAAATAGTTAACGATCTGTAAACATACATAGAATTACGCAAGGAGTTCCTGTTCAAACAGACTGGATGAAAGCCCTTCCATAAAGAACCCTTTAGGTGATGATGCTAAAATTATTTT", "normalised bound fraction [ratio]": 0.276}
{"Sequence": "GGGATTACAGGTGTGAGCCACTGCACCCGGCCACAAATTTTATAGTTTATTTTTCAGTGTCCTATTATCTCAAATTGTGAGGCACACATTTTCCTGTTTACTCTGCCTACTGACTTTCCCTAATTGACGATGGCCTAGGATGATGTAGAGTTTGTTTCCTTGAATGGTTTATATTTTTTATTTTGAACTGATT", "normalised bound fraction [ratio]": 0.165}
{"Sequence": "TGAACAGATTAGCTGATCTCTAATGGCCCTAGGAGAAGATCTTGTATTGCTTCAAAATCTTTTCTGATTCTCATCACTCAACCTTCTTGGCTATGTAATCTAAGGAAGCTTTCCTTTTGTTTTCCAGACGTTTGGAAAACAAAATTTTCCAGAGCTGTGCATCTGCCAGGAAATGTTTCTTTTAACCTGATAT", "normalised bound fraction [ratio]": -0.0504}
{"Sequence": "GAAAGAAGATCAGTATACATTTGAAGTACAGTAACTTGAGCATATCTTTCCTATTCATCTCACTGAACTTGGATTTCTCTAAATATGGCAATGTAAACAGGCAAATTTTAGATTACTCAACAATCTCTACAGACACTTTAAATTCAAGTACATTTACTCTGTGTAGAGGAAGCACATGTCTAATAAAAGCCTT", "normalised bound fraction [ratio]": 0.218}
{"Sequence": "TGATGATACGTTATAGCATTTCTCTGCTCTGTAAGAGAGGCACCAGGGTCGTGTGCTGGGTCTGGGGTTTGTCCACACATCCGGTTTCGCTGCTGTTGACTCTGGTGTCGGCCGCTGGTGAGCTGGCTGTAGCTGGTCACCTCTGGGTGGTTTCTGGGGCGGTCGCAGGCTGACTAACACACCAAAGGTCAGC", "normalised bound fraction [ratio]": 0.00303}
{"Sequence": "GTAGGAGTTACTCTATAAAACAGAATGACAGAGGTTTTGTCTATAAAACATTAGACTATGTAGACTATTAACTCTATGGAAATCTAATAAGCCATGTTTACTTTATTTAACCTATCCCAAGTAATTTTAGGCTGCTTTAGCCATTATGTGGTTTCTCCAAGAATCATTGTGAAAAGTGATCGCATTTTATTTC", "normalised bound fraction [ratio]": 0.384}
{"Sequence": "ACACAGAACTCAAATGTACAAATTCATAAATCTCATTTTGAGATGCACTTTCAGTTGAGGGACATTGAACAAGTAAGCTCATAAACATAAAAGTAAACAAGGGCAATAAATGTAAATATTTGTACACAATTATAAGTAATATAGAAGCTATCAAAATCCAAGTTCTTCTCCTGTCCATTAGCACACAGCCAGG", "normalised bound fraction [ratio]": 0.493}
{"Sequence": "ATCTTCCCCCTCTTCCTTGCCCCACCAGCTCACCTTCCCGGGTTATTTGCAGATAGGAAAATAAATAAAGCCGGCATTCGTTAACCCTCTTCTGGCGCAAACTGCCAAAGTAAACAGATGAATCATGGTCCTTTGGCGACGCCAGGCTCCGGGAGAGCAAAGCACCGTGTCAGGGCCATGATCCGGGGTGGCC", "normalised bound fraction [ratio]": 0.487}
{"data": "Sample 2", "target": "RING finger protein unkempt homolog, zinc fingers 1-6, GST-SBP tag (UNK, Homo sapiens, UniProt Q9C0B0, residues 30-357)", "technique": "RNA Bind-n-Seq", "form": "RNA", "sample": "in vitro", "concentration": "not given", "notes": "RNA with constant flanks, human-mouse chimeric sites, ends assumed", "relative to": "input RNA pool", "direction": "higher = stronger binding", "constant ends, left off below": "GGGAGUUCUACAGUCCGACGAUC … CAACAGAGGAUUGAGCAUCA", "UniProt Q9C0B0, sequence (30-357, looked up)": "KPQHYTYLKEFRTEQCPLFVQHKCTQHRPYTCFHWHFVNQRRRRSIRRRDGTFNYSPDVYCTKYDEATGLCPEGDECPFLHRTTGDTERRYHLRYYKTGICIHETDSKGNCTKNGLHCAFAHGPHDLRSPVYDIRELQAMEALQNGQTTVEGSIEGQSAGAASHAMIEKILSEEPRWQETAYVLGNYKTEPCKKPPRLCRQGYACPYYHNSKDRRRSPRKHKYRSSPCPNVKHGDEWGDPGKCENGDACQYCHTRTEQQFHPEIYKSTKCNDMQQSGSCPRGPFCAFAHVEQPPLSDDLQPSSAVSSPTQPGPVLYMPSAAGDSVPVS"}
{"Sequence": "AAUUUCCUGUCAUACUUUUUAGACAUUCACAUCAGACUUACAGAGCACCUGGCCACAUUCUAGUUUUGUGUUAUUUCUCAGCUAUGGAUAUGAUCAAAUGAGAACACUGCUUAACUAAUG", "bound/input enrichment": "0.428 ratio"}
{"Sequence": "UAAGUUAUUUUGUACAGCUUUGUAAAUUCUUAACAUUUUUAUAUUGCCAUGUUUAUUUUGUUUGGGUGCUUUAUUAAAUUAAGUACAUAGCUAAGGUACAUCUUUCAUUUUUCAGUAAUU", "bound/input enrichment": "1.77 ratio"}
{"Sequence": "AAUUUCCUGUCAUACUUUUUAGACAUUCACAUCAGACGCCUUACUACUUGGGCCUCUUUCUAGGUUUGUGUUAUUUCUCAGCUAUGGAUAUGAUCAAAUGAGAACACUGCUUAACUAAUG", "bound/input enrichment": "0.948 ratio"}
{"Sequence": "AUUGUUGAAGCGAAUCCACUUUUAGAAGCAUUUGGAAAUGCAAAGACUGUUCGCAACAAUAAUAGCAGUCGAUUUGGAAAAUUUGUAGAAAUACAUUUUAAUGAAAAGAGUUCGGUUGUU", "bound/input enrichment": "0.296 ratio"}
{"Sequence": "UCAUUUUGCUCGGGUUAUUCUUUCCUUAAAAGCCUAACUAAAGAUUAGGUUGUAAGAAAAACAGAAGCCAUGUUUCGAAGACCUGUGUUACAGGUAUUUCGUCAGUUUGUAAGACAUGAG", "bound/input enrichment": "0.226 ratio"}
{"Sequence": "CUGAGGAAUACCACUGAGAGACCUUAAAAGAAUCAUUUGAGGGCUCUGUUCGUGCAAGAAUAGUCACUGAUCGGGAAACUGGUUCUUCCAAAGGGUUUGGUUUUGUAGACUUUAAUAGUG", "bound/input enrichment": "0.769 ratio"}
{"Sequence": "UAAGUCCUGUGCCAGCACUUCGCUCAUAAAGUUUUAAAUUCUGGACCAAUUGUGUUUGUUUCCUGAUUAUUGUAUCCAAUACUUUGCCUAGUAUGUAACUCACUCUUACUGAUAAUAAAA", "bound/input enrichment": "1.24 ratio"}
{"Sequence": "CUGAGGAUACCACUGAAGAGACCUUAAAAGAAUCAUUUGAGGGCUCUGUUCGUGCAAGAAUAGUCACUGAUCGGGAAAACUGGGUCCCCAAAGGGUUUUGGUUUUGUGACUUUAAUAGUG", "bound/input enrichment": "0.353 ratio"}
{"data": "Sample 3", "target": "Serine/threonine-protein kinase 3 (STK3, Homo sapiens, UniProt Q13188)", "effect on": "enzyme activity", "action": "inhibitor", "concentration": "0.5 µM", "relative to": "control", "UniProt Q13188, sequence (whole entry, looked up)": "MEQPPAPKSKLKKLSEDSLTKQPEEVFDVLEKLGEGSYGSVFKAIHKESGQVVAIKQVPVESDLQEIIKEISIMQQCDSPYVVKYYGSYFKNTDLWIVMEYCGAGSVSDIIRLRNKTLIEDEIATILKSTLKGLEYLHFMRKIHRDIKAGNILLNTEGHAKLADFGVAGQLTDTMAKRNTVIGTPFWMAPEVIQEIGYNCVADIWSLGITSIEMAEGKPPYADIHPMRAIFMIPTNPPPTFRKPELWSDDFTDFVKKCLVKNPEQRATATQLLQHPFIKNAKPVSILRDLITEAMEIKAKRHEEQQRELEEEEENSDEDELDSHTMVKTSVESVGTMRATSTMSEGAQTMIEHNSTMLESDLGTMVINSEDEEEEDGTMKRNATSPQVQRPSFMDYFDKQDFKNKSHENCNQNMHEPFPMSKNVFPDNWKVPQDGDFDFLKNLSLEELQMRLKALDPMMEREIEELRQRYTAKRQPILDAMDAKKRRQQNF"}
{"Compound": "CCOC(=O)c1c(C)[nH]c(/C=C2\\C(=O)Nc3ccccc32)c1C", "remaining activity": "73.7%"}
{"Compound": "Oc1ccc(-c2nc(-c3ccncc3)c(-c3ccc(F)cc3)[nH]2)cc1", "remaining activity": "105%"}
{"Compound": "Cn1sc(=O)n(Cc2ccccc2)c1=O", "remaining activity": "93.2%"}
{"Compound": "CNC(=O)c1cc(Oc2ccc(NC(=O)Nc3ccc(Cl)c(C(F)(F)F)c3)cc2)ccn1", "remaining activity": "96.9%"}
{"Compound": "Nc1ccc2ncnc(NCCc3ccc(Oc4ccccc4)cc3)c2c1", "remaining activity": "105%"}
{"Compound": "Nc1[nH]nc2nc3ccccc3nc12", "remaining activity": "88.9%"}
{"Compound": "Cc1nc(-c2ccccc2)c(-c2ccncc2)o1", "remaining activity": "104%"}
{"Compound": "O=c1c2ccccc2[nH]c(=S)n1CCN1CCC(=C(c2ccc(F)cc2)c2ccc(F)cc2)CC1", "remaining activity": "102%"}
{"Compound": "CC(C)[C@H](CO)Nc1nc(Nc2cc(N)cc(Cl)c2)c2ncn(C(C)C)c2n1", "remaining activity": "70%"}
{"Compound": "COc1cc2nccc(Oc3ccc(NC(=S)NC(=O)c4ccccc4C)cc3)c2cc1OC", "remaining activity": "86%"}
{"Compound": "COc1cc2ncnc(Nc3ccc(F)c(Cl)c3)c2cc1OCCCN1CCOCC1", "remaining activity": "93.6%"}
{"Compound": "Cn1c2ccccc2c2c3c(c4c5ccccc5n(CCC#N)c4c21)CNC3=O", "remaining activity": "3.07%"}
{"Compound": "Cc1cccc(-c2[nH]c(C(C)(C)C)nc2-c2ccc3c(c2)OCO3)n1", "remaining activity": "97.7%"}
{"Compound": "O=S(=O)(c1cccc2cnccc12)N1CCCNCC1", "remaining activity": "90%"}
{"Compound": "Nc1ncnc2n[nH]c(Nc3ccc(F)cc3)c12", "remaining activity": "90.8%"}
{"data": "Sample 4", "SMILES": "O=C(Nc1cccnn1)N1CC(C/C=C/c2cncc(Oc3ccc(C(F)(F)F)cn3)n2)C1", "effect on": "cell-free assay", "technique": "competition with immobilised ligand", "concentration": "1 µM"}
{"target": "STK16 (Homo sapiens, UniProt O75716)", "remaining binding [%]": 98}
{"target": "MAP2K4 (Homo sapiens, UniProt P45985)", "remaining binding [%]": 74}
{"target": "Ribosomal protein S6 kinase alpha-2, N-terminal kinase domain (RPS6KA2, Homo sapiens, UniProt Q15349)", "remaining binding [%]": 100}
{"note": "A few entries again (sample 1):"}
{"Sequence": "TGAACAGATTAGCTGATCTCTAATGGCCCTAGGAGAAGATCTTGTATTGCTTCAAAATCTTTTCTGATTCTCATCACTCAACCTTCTTGGCTATGTAATCTAAGGAAGCTTTCCTTTTGTTTTCCAGACGTTTGGAAAACAAAATTTTCCAGAGCTGTGCATCTGCCAGGAAATGTTTCTTTTAACCTGATAT", "normalised bound fraction [ratio]": -0.0504}
{"Sequence": "GAAAGAAGATCAGTATACATTTGAAGTACAGTAACTTGAGCATATCTTTCCTATTCATCTCACTGAACTTGGATTTCTCTAAATATGGCAATGTAAACAGGCAAATTTTAGATTACTCAACAATCTCTACAGACACTTTAAATTCAAGTACATTTACTCTGTGTAGAGGAAGCACATGTCTAATAAAAGCCTT", "normalised bound fraction [ratio]": 0.218}
{"Sequence": "TGATGATACGTTATAGCATTTCTCTGCTCTGTAAGAGAGGCACCAGGGTCGTGTGCTGGGTCTGGGGTTTGTCCACACATCCGGTTTCGCTGCTGTTGACTCTGGTGTCGGCCGCTGGTGAGCTGGCTGTAGCTGGTCACCTCTGGGTGGTTTCTGGGGCGGTCGCAGGCTGACTAACACACCAAAGGTCAGC", "normalised bound fraction [ratio]": 0.00303}
{"Sequence": "GTAGGAGTTACTCTATAAAACAGAATGACAGAGGTTTTGTCTATAAAACATTAGACTATGTAGACTATTAACTCTATGGAAATCTAATAAGCCATGTTTACTTTATTTAACCTATCCCAAGTAATTTTAGGCTGCTTTAGCCATTATGTGGTTTCTCCAAGAATCATTGTGAAAAGTGATCGCATTTTATTTC", "normalised bound fraction [ratio]": 0.384}
